Measurements of several laboratories.
Every numbered part comes from another study and shows a few of its results, in no order.

Block 1
Target: RNA binding protein fox-1 homolog 2, RRM domain, GST-SBP tag (RBFOX2, Homo sapiens, UniProt O43251-10, residues 100-194)
Method: RNA Bind-n-Seq
Molecule type: RNA
Matrix: in vitro
Concentration: 365 nM
Notes: natural RNA segment, single round, ends assumed
Relative to: no-protein control
Direction: higher = stronger binding
Shared flanks, not repeated: GGGAGUUCUACAGUCCGACGAUC … UGGAAUUCUCGGGUGCCAA
| Strand | RBNS enrichment (R) |
| --- | --- |
| UUGAACUUAGAGUGCUGGCUCUGCUAUAUGGUACAACUAAUGCUAGACCUACAGUUUAUGUAUACAGUUGAUUUUGAUGUAUUUAUAAAAGCUUUUUUUUCUAGAUUUGA | 0.581 |
| GCUCUCUUUGGGACCUGGCCGUGCUUCCUGCUCGUAUGACUACCAGGGGCCAUAUCUGUAUUAACUGGAUCAAGUAUAAGAAAAGCAAAGACUUCUCAGCUCUGACCUGC | 1.29 |
| AGAAGGAGGGCCCAGGCACUUUCUGUUUGAACCCCUGUCAUGAUCACAGUGUCAGAGACGCGUCCUCUUUCUUGGGGAAGUUGAGGAGUGCCCUUCAGAGCCAGUAGCAG | 0.477 |
| UUUUCCCUAUCCACAGGGGUGUUUGUGUGUGUGCGCGUGUGCGUUUCAAUAAAGUUUGUACACUUUCUUAACAGUGUCUGAUUUGCCGCCCUGCCUGCCCUCCCCAGGGC | 0.626 |
| UCGUGAAAAAUGUGUUCACACUGUGGGAGGCAAAGCUUGGUCUGAGAAUGUAACUGUUGAUGUGAGCAGCAGAAAUCUGCUUAUAGAUAACAUACUGUUAAUAUUUAAUU | 0.535 |
| GAAAUAAAAGCAAAGCACCUGUAUGGCUGCCACUCUUUUUGACCCUUGCUUUCCUCCCUCCUCUUUUUCCCCCAGCCUUCCCCUUUCCUUUUUCCUACCUCUCUCUGUUC | 1.39 |
| CAGGCAGCAGCCGCCCAUCUCGCCCCAACUGUUGGCUCCAGGCAGGGCUGGGCAGCAGGGAGCCUGGGACUGAACAAUAAACCCAUGAUCUCCUGCCUCACACACCUGUU | 0.393 |
| UGGGAAGCUUGAGGGUUCCCUUCUUAGGACCAGCGGGUGGUUUGUGAAAUGCUUAGCUGGUUAGCAUCCGAGGUGAGGGUCUGAAGGAGUCUCUCUGUCUUCUUCUUUCU | 0.466 |
| CCACCCAGCUCGGCCGUGGUGUAUUGUGGUCACUGCUGCUCCCUCUCCUUUACCCCCCACCCCCAUUUUGUUUUUGUAAACCAUCCCGUCCACAGUUGUCAGUUGUGAAG | 2.45 |
| GCUCUUCUUACUGUAUUUAUUAAAACUUGUAAUAAUGUGAUUUUUUUCAAGGAUAUUAGUUCAAAUUGAAAUGGUUUCACGCCACACGGAAAUCUUUAAGUUAUUUGUUG | 0.422 |
| GGGGGACACUAGAAUGAAAACCAGUGUUAGGGUAAAGACAAAACAGACUAUGUACAUAAUCUGUAUAUGGGAAAAGAAAGAGCGAAAUUACCUUACUUAAGGAUAAUAGG | 0.994 |
| GAACUAAAUCUGUGGAAUGCAUUGUGAACUGUAAAAGCAAAGUAUCAAUAAAGCUUAUAGACUUAAAUAUGCUUUGGUAUUUUCAUUUCAUGAAAUUGCAGCAGAUUAAA | 0.409 |

Block 2
Target: Histone acetyltransferase KAT6A, both winged helices, GST fusion (KAT6A, Homo sapiens, UniProt Q92794, residues 1-181)
Method: protein binding microarray
Molecule type: double-stranded DNA, one strand shown
Matrix: in vitro
Concentration: not given
Notes: 8-mer, flanks averaged, mean of 2 arrays, mostly near background
Relative to: not given
Direction: higher = stronger binding
Residues (chain): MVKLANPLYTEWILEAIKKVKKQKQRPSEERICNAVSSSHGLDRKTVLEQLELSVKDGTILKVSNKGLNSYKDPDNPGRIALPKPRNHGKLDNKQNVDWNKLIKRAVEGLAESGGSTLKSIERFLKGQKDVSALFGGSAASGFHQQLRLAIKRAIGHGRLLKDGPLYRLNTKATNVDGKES
| Strand | E-score |
| --- | --- |
| CCTACTTC | -0.155 |
| AATCCCTC | -0.0793 |
| CCTCAATA | -0.0195 |
| GCTAGCTA | -0.0149 |
| AGTTTTGG | -0.147 |
| GGGAGCCC | -0.0249 |
| ATATCCAG | -0.0444 |
| AGTCTTTC | -0.0978 |
| AAGGTTCC | -0.0672 |
| CGGAGCGA | 0.213 |
| CCATCGCG | 0.263 |
| ATGGCGCG | 0.227 |
| GTGGTAAC | -0.00199 |
| CGCGGTCC | 0.366 |
| GCCATACA | -0.0596 |
| CTCAGGTC | 0.0497 |
| AAGGCCGC | 0.223 |

Block 3
Target: Interferon regulatory factor 7, full length, phosphomimetic (IRF7, Homo sapiens, UniProt Q92985, residues 1-503, S101K/S471D/S472D/S475D/S476D/S477D/S483D/S484D/S487D)
Chain of UniProt Q92985 (whole entry, unmodified, looked up): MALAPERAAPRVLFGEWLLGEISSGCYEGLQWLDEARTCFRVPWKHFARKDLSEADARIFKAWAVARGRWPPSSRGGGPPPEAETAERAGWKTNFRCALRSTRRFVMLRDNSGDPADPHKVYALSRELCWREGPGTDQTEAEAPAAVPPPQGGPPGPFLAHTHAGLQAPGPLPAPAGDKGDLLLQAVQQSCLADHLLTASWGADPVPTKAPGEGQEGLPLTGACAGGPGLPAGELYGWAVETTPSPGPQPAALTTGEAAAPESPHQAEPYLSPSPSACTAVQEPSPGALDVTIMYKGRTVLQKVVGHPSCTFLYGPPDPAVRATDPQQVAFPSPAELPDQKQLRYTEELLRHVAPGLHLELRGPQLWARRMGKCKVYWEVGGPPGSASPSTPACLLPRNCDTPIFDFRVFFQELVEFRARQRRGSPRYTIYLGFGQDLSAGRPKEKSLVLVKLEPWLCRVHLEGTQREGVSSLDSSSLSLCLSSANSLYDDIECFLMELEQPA
Method: protein-binding microarray
Molecule type: double-stranded DNA, one strand shown
Matrix: in vitro
Concentration: 250 nM
Notes: 60-bp whole probe
Together with: salmon DNA 0.4 mg/ml
Relative to: random background probes
Direction: higher = stronger binding
Shared flanks, not repeated: GCCTAGCAC … GTCTTGATTCGCTTGACGCTGCTG
| Strand | log fluorescence [z-score] |
| --- | --- |
| GACGGTTTCGACTATCGCGACGTGCTA | 5.63 |
| GACGGTATCGGTTTCGGGGCGTGCTAG | 6.24 |
| GACGAACTGGTGTATCGAGACGTGCTA | -0.681 |
| TTAGGTTTAGGGACTGGGTTAGTGCTA | -0.113 |
| GACGGTTCCGGTTTCGGTACGTGCTAG | 8.3 |
| CCTTTTATGGTATTTTTTTCGTGCTAG | 1.78 |
| TTAGGCCTGGGTTTCGGTTAGTGCTAG | 6.32 |
| GACGGTTTCGGGTTGCGGGACGTGCTA | 12.9 |
| GACGGTATCGGAATGGGGACGTGCTAG | 1.34 |
| GACGGTCTCGGTAGCGGGACGTGCTAG | -0.356 |
| AACGAACTGGGGACTGGAGACGTGCTA | -0.552 |
| GACGGTATCCTTTTCATGACGTGCTAG | 0.641 |
| TTAGATCTCAGACTGGATTAGTGCTAG | 0.11 |
| TTTGGTTTCGGTATCGGTTAGTGCTAG | 11.9 |
| TATGTCTGGCCCAAGCAGCCGTGCTAG | -0.293 |
| GACGGTATCGACACTGGGGAAGTGCTA | -0.481 |
| TCAAGTTTCTCCTTTCGACTGTGCTAG | 2.42 |
| GACGATATCAAACTGGAGACGTGCTAG | -0.219 |
| GACGGACTAGACACTGGGGACGTGCTA | -0.21 |
| GCCTTTTATTTGAAAGAAATGTGCTAG | 1.17 |
| GACCATCTCAGTCTCGAGACGTGCTAG | 0.529 |
| CTTCATGTTTTTTTCTACTTGTGCTAG | 0.932 |
| TTAGATATTAGTTTCGATTAGTGCTAG | 9.56 |
| TCATGTCTGTGTCACAGACTGTGCTAG | 0.0761 |
| CAGCTTCTAATATTCATTTTGTGCTAG | 0.626 |

Block 4
Target: Fragile X messenger ribonucleoprotein 1, C-terminal low-complexity region (Fmr1, Mus musculus, UniProt P35922)
Method: RNA Bind-n-Seq
Molecule type: RNA
Matrix: in vitro
Concentration: 200 nM
Notes: whole 134-nt RNA, ends assumed
Together with: 150 mM LiCl
Relative to: input library
Direction: higher = stronger binding
All molecules: 7-deaza-guanosine replaces G
Shared flanks, not repeated: GGGAGUUCUACAGUCCGACGAUC … UGGAAUUCUCGGGUGUCAAGG
| Strand | log2 enrichment |
| --- | --- |
| CUGUGCUACACAUCGUAUGUACCGAAUCGGGUUUUUUUGGGAAAAAAAGGGAAAAAAAGGGAAAGUAUUAUGUUACGCCGUUCGGAUCUG | -1.94 |
| UCCUGUGCUACACAUCGUAUGUACCGAAUCGGGGAAAAAAAGGGGUUUUUGGGGAGGGGAAAGUAUUAUGUUACGCCGUUCGGAUCUGCA | -0.479 |
| UAACUUUAGAGUAGGAUCUGAUGGAUAUGGCAGUGGACGUGGAUUUGGGGAUGGCUAUAAUGGGUAUGGAGGAGGACCUGGAGGUGGCAA | -0.0145 |
| GUCCUGUGCUACACAUCGUAUGUACCGAAUCGGUUUUUUGGUUUUUUGGGGUUUUUUGGAAAGUAUUAUGUUACGCCGUUCGGAUCUGCA | -1.27 |
| UCCUGUGCUACACAUCGUAUGUACCGAAUCGGGAAAGGGUUUUUUUGGGAAAAAAAGGGAAAGUAUUAUGUUACGCCGUUCGGAUCUGCA | -1.14 |
| CACAGACAACACGCACCCAUACAGACACAGAGGGAAGGGGUUGGGAUGGGGACAGGGUGCACAGCAGGGCGGGGUAGGACCCCAGCCCCU | 0.305 |
| CCUGUGCUACACAUCGUAUGUACCGAAUCAAAUUUUUAAAUUUUUUUAAACCCCCCCAAAAAAGUAUUAUGUUACGCCGUUCGGAUCUGC | 1.3 |
| GUCCUGUGCUACACAUCGUAUGUACCGAAUCGGGGAAAGGGGUUUUUUUGGGGAGGGGAAAGUAUUAUGUUACGCCGUUCGGAUCUGCAC | -0.329 |
| GCAGGAAGUAAAAACAAAUGGAAAUGCUUCGGAUAGUGGCAGGGGUGGGGGUUGCUAAGGAAAGGGUGGGUUGGGAGUGGGUAAAGAGUU | 1.49 |
| CAAGUCCUGUGCUACACAUCGUAUGUACCGAAUCGGUUUUGGUUUUGGGUUUUGGGAAAGUAUUAUGUUACGCCGUUCGGAUCUGCACUU | -1.83 |
| UCCUGUGCUACACAUCGUAUGUACCGAAUCGGGUUUUUGGGUUUUUGGGUUUUUUUGGGAAAGUAUUAUGUUACGCCGUUCGGAUCUGCA | -0.0579 |

Excerpt of the above (block 4):
| Strand | log2 enrichment |
| --- | --- |
| GUCCUGUGCUACACAUCGUAUGUACCGAAUCGGUUUUUUGGUUUUUUGGGGUUUUUUGGAAAGUAUUAUGUUACGCCGUUCGGAUCUGCA | -1.27 |
| UCCUGUGCUACACAUCGUAUGUACCGAAUCGGGUUUUUGGGUUUUUGGGUUUUUUUGGGAAAGUAUUAUGUUACGCCGUUCGGAUCUGCA | -0.0579 |
| CACAGACAACACGCACCCAUACAGACACAGAGGGAAGGGGUUGGGAUGGGGACAGGGUGCACAGCAGGGCGGGGUAGGACCCCAGCCCCU | 0.305 |
| CCUGUGCUACACAUCGUAUGUACCGAAUCAAAUUUUUAAAUUUUUUUAAACCCCCCCAAAAAAGUAUUAUGUUACGCCGUUCGGAUCUGC | 1.3 |
| GCAGGAAGUAAAAACAAAUGGAAAUGCUUCGGAUAGUGGCAGGGGUGGGGGUUGCUAAGGAAAGGGUGGGUUGGGAGUGGGUAAAGAGUU | 1.49 |
| UCCUGUGCUACACAUCGUAUGUACCGAAUCGGGAAAGGGUUUUUUUGGGAAAAAAAGGGAAAGUAUUAUGUUACGCCGUUCGGAUCUGCA | -1.14 |
| UCCUGUGCUACACAUCGUAUGUACCGAAUCGGGGAAAAAAAGGGGUUUUUGGGGAGGGGAAAGUAUUAUGUUACGCCGUUCGGAUCUGCA | -0.479 |
| CAAGUCCUGUGCUACACAUCGUAUGUACCGAAUCGGUUUUGGUUUUGGGUUUUGGGAAAGUAUUAUGUUACGCCGUUCGGAUCUGCACUU | -1.83 |
| UAACUUUAGAGUAGGAUCUGAUGGAUAUGGCAGUGGACGUGGAUUUGGGGAUGGCUAUAAUGGGUAUGGAGGAGGACCUGGAGGUGGCAA | -0.0145 |
| CUGUGCUACACAUCGUAUGUACCGAAUCGGGUUUUUUUGGGAAAAAAAGGGAAAAAAAGGGAAAGUAUUAUGUUACGCCGUUCGGAUCUG | -1.94 |
